# Experimental data from different studies.
# Each numbered part is a random draw from the data of one study; scales do not carry over between parts.

# Block 1
# Target: Sal-like protein 4, full length isoform B (SALL4, Homo sapiens, UniProt Q9UJQ4-2, residues 1-616)
# Technique: universal PBM
# Form: double-stranded DNA, one strand shown
# Sample: in vitro
# Tested at: not given
# Notes: 8-mer, flanks averaged, mean of replicates
# Reading: higher = stronger binding
# Target sequence (chain): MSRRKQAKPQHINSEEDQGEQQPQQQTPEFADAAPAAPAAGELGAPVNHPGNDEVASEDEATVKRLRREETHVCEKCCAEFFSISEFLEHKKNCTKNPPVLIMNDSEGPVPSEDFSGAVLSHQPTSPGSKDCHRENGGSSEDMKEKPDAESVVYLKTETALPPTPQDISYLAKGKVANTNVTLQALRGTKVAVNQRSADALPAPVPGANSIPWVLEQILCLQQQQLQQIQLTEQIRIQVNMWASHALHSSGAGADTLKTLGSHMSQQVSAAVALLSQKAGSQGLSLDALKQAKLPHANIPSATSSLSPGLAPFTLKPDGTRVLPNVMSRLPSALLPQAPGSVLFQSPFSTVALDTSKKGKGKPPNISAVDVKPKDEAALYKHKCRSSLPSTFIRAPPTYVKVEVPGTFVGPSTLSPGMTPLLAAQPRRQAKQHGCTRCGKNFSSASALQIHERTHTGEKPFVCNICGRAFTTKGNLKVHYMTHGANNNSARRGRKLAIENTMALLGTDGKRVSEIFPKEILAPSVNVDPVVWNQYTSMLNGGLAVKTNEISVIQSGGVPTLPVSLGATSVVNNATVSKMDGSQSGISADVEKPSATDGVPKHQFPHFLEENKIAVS
Oligonucleotide,E-score
CGGGGGAA,-0.204
GTGCTGAA,-0.0832
CGAGCCTC,-0.262
ACGGGTCC,-0.381

# Block 2
# Target: PABPC1L2, full length, GST fusion (mouse, UniProt A0ABA7IW68)
# Technique: RNAcompete
# Form: RNA
# Sample: in vitro
# Tested at: 20 nM
# Notes: 7-mer, probes averaged, single round
# Relative to: mean of 7-mers
# Reading: higher = stronger binding
# Construct (chain): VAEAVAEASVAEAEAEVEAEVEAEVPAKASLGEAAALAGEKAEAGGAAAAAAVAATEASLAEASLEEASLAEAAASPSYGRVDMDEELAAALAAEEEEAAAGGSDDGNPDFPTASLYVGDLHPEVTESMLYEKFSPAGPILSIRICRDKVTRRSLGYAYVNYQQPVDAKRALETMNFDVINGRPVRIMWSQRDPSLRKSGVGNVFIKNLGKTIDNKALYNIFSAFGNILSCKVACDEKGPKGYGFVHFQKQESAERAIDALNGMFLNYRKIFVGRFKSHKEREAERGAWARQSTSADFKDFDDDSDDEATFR
Oligonucleotide,7-mer Z-score
ACUUUUU,-0.0754
CCCACGU,-0.262
UAGAUAG,-0.128
CCACCUC,-0.213
AGCAUGG,-0.0554

# Block 3
# Target: Interferon regulatory factor 5, full length, phosphomimetic (IRF5, Homo sapiens, UniProt Q13568-2, residues 1-514, K96S/S451D/S453D/S456D/S462D)
# Technique: protein-binding microarray
# Form: double-stranded DNA, one strand shown
# Sample: in vitro
# Tested at: 250 nM
# Notes: 60-bp whole probe
# With: salmon DNA 0.4 mg/ml
# Relative to: random background probes
# Reading: higher = stronger binding
Oligonucleotide,log fluorescence [z-score]
GCCTAGCACTTAGGACGGGGACTGGGTTAGTGCTAGGTCTTGATTCGCTTGACGCTGCTG,-0.179
GCCTAGCACCGTTTTTCATTTTTTTTTTCGTGCTAGGTCTTGATTCGCTTGACGCTGCTG,2.52
GCCTAGCACTTAGATATCGGAACTGGATTAGTGCTAGTCTTGATTCGCTTGACGCTGCTG,1.62
GCCTAGCACCTTATTCTCTACTTGTGTCTGTGCTAGGTCTTGATTCGCTTGACGCTGCTG,0.796

# Mixed results
Substance,target,assay,test system,conditions,scale,measurement,result
"PhoQ, residues 284 288 289 292 302 303 SNGLAW","PhoP, residues 12 14 15 18 19 LHATL (Escherichia coli, UniProt P23836)","Sort-seq, item: YFP reporter",E. coli,"PhoQ-PhoP variant library, with: 10 µM Mg2+","relative to: high Mg2+ state, higher = stronger signaling",fold induction,9.86

# For quick reference, copied from above (mixed results):
Substance,target,assay,test system,conditions,scale,measurement,result
"PhoQ, residues 284 288 289 292 302 303 SNGLAW","PhoP, residues 12 14 15 18 19 LHATL (Escherichia coli, UniProt P23836)","Sort-seq, item: YFP reporter",E. coli,"PhoQ-PhoP variant library, with: 10 µM Mg2+","relative to: high Mg2+ state, higher = stronger signaling",fold induction,9.86
